Measured values collected from several papers.
Compare with care: the assays were run in different laboratories. ± marks the error that the study gave.
Tmem97: Sigma intracellular receptor 2 (Tmem97, Rattus norvegicus, UniProt Q5U3Y7)
CA9: Carbonic anhydrase 9 (CA9, Homo sapiens, UniProt Q16790)
SIGMAR1: Sigma non-opioid intracellular receptor 1 (SIGMAR1, Cavia porcellus, UniProt Q60492)
ADH1 H49Q: ADH1 (Saccharomyces cerevisiae, UniProt P00330, H49Q)
Gria2: Glutamate receptor 2 (Gria2, Rattus norvegicus, UniProt P19491)

Structure (SMILES)	target or system	assay	test system	conditions	how to read	measurement	value
OC1Cc2ccccc2CC1N1CCC2(C=Cc3cc(F)ccc32)CC1 (racemic)	Tmem97	radioligand binding	rat liver	together with: [3H]DTG, 1 µM dextrallorphan mask		Ki	0.25 ± 0.14 µM
O=C(Nc1ccc2c(c1)C=CCP(=O)(O)O2)c1ccc(Br)cc1	CA9					Ki	0.0258 µM
O=C(NCCN1CCCCC1)c1ccc(-c2ccc(N3CCSCC3)nc2)cc1	Vero-E6	CellTiter-Glo ATP		72 h, second round 5-point	reference: DMSO 0%, hyamine -100%, more negative, more toxic	maximum response	-24.1%
Cc1cccc(C)c1N1C(=O)CNC2(CCN(C)CC2)C1=O	SIGMAR1					Ki	> 10 µM
OCC(F)(F)F	ADH1 H49Q	inhibitor				Ki	33000 µM
OC1Cc2ccccc2CC1N1CCC2(CC1)C(Br)=Cc1ccccc12 (racemic)	Tmem97	binding, radioligand displacement	rat liver membranes	together with: [3H]DTG, dextrallorphan masking		Ki	11 ± 1 µM
CCCN(CCC)CCNC(=O)c1cc(-c2ccc(Br)s2)nc2ccccc12	Vero-E6	CellTiter-Glo ATP		72 h, second round 5-point	reference: DMSO 0%, hyamine -100%, more negative, more toxic	maximum response	-5.38%
O=C(Nc1ccc(Cl)cc1)Nc1ccc2c(c1)C=CCP(=O)(O)O2	CA9					Ki	0.0548 µM
O[C@@H]1CCCC[C@H]1N1CCC(c2ccccc2)CC1 (racemic)	Tmem97	radioligand binding	rat liver	together with: [3H]DTG, 1 µM dextrallorphan mask		Ki	0.24 ± 0.01 µM
O=C(O)COP(=O)(O)O	Triosephosphate isomerase (Trypanosoma brucei, UniProt Q385L6, I172A/P168A)					Ki	840 µM
O=C(Nc1ccc(F)cc1)Nc1ccc2c(c1)C=CCP(=O)(O)O2	CA9					Ki	0.0044 µM
CC(C)C[C@@H]1NC(=O)[C@H](CC(C)C)NC(=O)[C@H](Cc2c[nH]c3ccccc23)NC(=O)[C@H](CO)NC(=O)[C@H](Cc2c[nH]c3ccccc23)NC(=O)[C@@H]2CCCN2C(=O)[C@H](CC(C)C)NC(=O)[C@H](Cc2c[nH]cn2)NC(=O)[C@@H]2CCCN2C(=O)[C@H](CC(N)=O)NC(=O)[C@H](C)NC(=O)[C@H](Cc2ccc(O)cc2)NC(=O)[C@H](CS)NC(=O)[C@H](CCCCNC(=O)CN2CCN(CC(=O)O)CCN(CC(=O)O)CCN(CC(=O)O)CC2)NC1=O [lutetium-177 labelled]			Balb/c mouse, female, 4T1 tumour, kidney	intravenous, 3.7 MBq, 4 h		tissue uptake	8.23 ± 1.47 %ID
OC(c1ccc(F)cc1)C(F)(F)CCN1CCC(O)(c2ccc(Cl)cc2)CC1 (racemic)	Tmem97					Ki	0.032 ± 0.0032 µM
COc1ccc(S(=O)(=O)N2CCCCC2)cc1C	Melanopsin (Opn4, Mus musculus, UniProt Q9QXZ9)	binding				Ki	0.047 µM
Oc1ccc(N=Nc2ccc(-c3nc4ccccc4s3)cc2)cc1CN(Cc1ccccn1)Cc1ccccn1	Amyloid-beta precursor protein, Aβ40 fibrils (APP, Homo sapiens, UniProt P05067)	binding to Aβ fibrils, thioflavin T competition		Aβ 5 µM, together with: ThT 2 µM		Ki	1.54 µM
NC(=O)c1ccc[n+]([C@@H]2O[C@H](COP(=O)([O-])OP(=O)(O)OC[C@H]3O[C@@H](n4cnc5c(N)ncnc54)[C@H](O)[C@@H]3O)[C@@H](O)[C@H]2O)c1	ADH1 H49Q	inhibitor		pH 7		Ki	480 µM
NC(CC1(C(=O)O)CC2OC(CO)C(O)C(O)C2O1)C(=O)O (stereo not shown)	Gria2	[3H]AMPA displacement	HEK-293T/17 membranes			Ki	~10 µM
O=[As](O)(O)c1ccc(Cc2ccc([As](=O)(O)O)cc2)cc1	Autotaxin (ENPP2, Homo sapiens, UniProt Q13822)	lysoPLD activity		together with: FS-3		Ki	0.24 µM
O=C(Nc1ccc2c(c1)C=CCP(=O)(O)O2)c1ccccc1Br	CA9					Ki	0.0232 µM

Structure (SMILES)	target or system	assay	test system	conditions	how to read	measurement	value
C[C@@H](O)[C@@H](CO)NC(=O)[C@@H](CCCNC(=N)N)NC(=O)[C@@H]1CCCN1C(=O)[C@@H]1CSSC[C@H](NC(=O)[C@H](Cc2ccccc2)NC(=O)CN2CCN(CC(=O)O)CCN(CC(=O)O)CCN(CC(=O)O)CC2)C(=O)N[C@@H](Cc2ccc(O)cc2)C(=O)N[C@@H](Cc2ccccc2)C(=O)N[C@@H](CCC(N)=O)C(=O)N[C@@H](CC(N)=O)C(=O)N1 [gallium-68 labelled]			human serum	4 h, 37 °C		radiochemical purity	> 98%
NC(CC1(C(=O)O)CC2OC(CO)C(O)C(N)C2O1)C(=O)O (stereo not shown)	Grik2 (Rattus norvegicus, UniProt P42260)	binding	HEK293T/17 membranes	together with: [3H]kainate		Ki	0.929 µM
O=C(Nc1ccccc1)Nc1ccc2c(c1)C=CCP(=O)(O)O2	CA9					Ki	0.0349 µM
CC=O	ADH1 H49Q	inhibitor		pH 7.3		Ki	550 µM
Nc1nc2ncc(CNc3ccc(C(=O)N[C@@H](CCC(=O)O)C(=O)O)cc3)nc2c(=O)[nH]1	Proton-coupled folate transporter, E247R; ThTr1 chimera (Homo sapiens, UniProt Q96NT5)	[3H]methotrexate uptake, inhibitor, Dixon plot	transfected cells tp-E247R	pH 5.5, together with: [3H]methotrexate 0.5 µM		Ki	0.6 ± 0.12 µM
O=C(O)C[C@H](NC(=O)[C@H](CC(=O)O)NC(=O)[C@H](CC(=O)O)NC(=O)[C@H](CC(=O)O)NC(=O)[C@H](CC(=O)O)NC(=O)[C@H](CC(=O)O)NC(=O)[C@H](CC(=O)O)NC(=O)[C@H](CC(=O)O)NC(=O)[C@H](CC(=O)O)NC(=O)[C@H](CC(=O)O)NC(=O)[C@H](CC(=O)O)NC(=O)[C@H](CCCCNC(=O)c1ccc(C(=O)NCCOCCOB2BBBBBB3BBBB3B2)cc1)NC(=O)CN1CCN(CC(=O)O)CCN(CC(=O)O)CCN(CC(=O)O)CC1)C(=O)O [gallium-67 labelled]			ddY male mice, large intestine	intravenous, 37 kBq, 1 h		tissue uptake	0.11 %ID/g
CCCC[C@H](NC(=O)[C@H](C[SeH])NC(=O)CNC(=O)[C@H](CCCCN)NC(=O)[C@H](CCCNC(=N)N)NC(=O)[C@H](CCCCN)NC(=O)[C@H](C[SeH])NC(=O)CNC(=O)[C@H](CCCCN)NC(=O)[C@H](CCCNC(=N)N)NC(=O)[C@H](CCCCN)NC(=O)[C@H](C[SeH])NC(=O)[C@H](C)NC(C)=O)C(N)=O	Genome polyprotein, NS2B-NS3 protease (ZIKV, UniProt A0A024B7W1)	enzyme activity, inhibitor	Zika virus			Ki	0.024 µM
COc1ccc(C(=O)Nc2ccc3c(c2)C=CCP(=O)(O)O3)cc1	CA9					Ki	0.0101 µM
COc1cc(Nc2ncc(F)c(Nc3ccc4c(n3)NC(=O)C(C)(C)O4)n2)cc(OC)c1OC	Estrogen receptor (ESR1, Homo sapiens, UniProt P03372)					IC50	> 10 µM
COc1cc2c(cc1OC)CN(CCc1ccc(NC(=O)c3cccc4c(=O)c5cccc(OC)c5[nH]c34)cc1)CC2	SLC6A2 (Homo sapiens, UniProt P23975)	binding				Ki	0.878 µM
COc1ccc(NC(=O)Nc2ccc3c(c2)C=CCP(=O)(O)O3)cc1	CA9					Ki	0.0053 µM
CCC(CC)(NC(=O)c1ccc(C2CC2)c(Cc2ccc(F)cc2)n1)C(=O)NCCOCCOCCNC(=O)c1ccc2c(c1)C1(OC2=O)c2ccc(N(C)C)cc2[Si](C)(C)c2cc(N(C)C)ccc21	CNR2 (Homo sapiens, UniProt P34972)	binding, [3H]CP55940 displacement	CHO cell membranes			Ki	0.684 µM
Cc1cccc(C)c1N1C(=O)[C@H](CC2CNc3ccccc32)NC2(CCN(C)CC2)C1=O (stereo partly shown)	SIGMAR1					Ki	> 10 µM
OC1Cc2ccccc2CC1N1CCC2(C=Cc3ccc(F)cc32)CC1 (racemic)	Tmem97	radioligand binding	rat liver	together with: [3H]DTG, 1 µM dextrallorphan mask		Ki	0.19 ± 0.05 µM
C[C@H]1CN(c2n[nH]c3nc(N[C@H]4CC[C@H](NS(=O)(=O)CCC(F)(F)F)CC4)ncc23)CCO1	Crk-like protein (Homo sapiens, UniProt P46109)	competitor, Kinobeads competition	human cell extract	0.8 µM	reference: vehicle	relative abundance	1.18
C=CC(O)CO (stereo not shown)	Cytochrome P450 2E1 (Cyp2e1, Mus musculus, UniProt Q05421)	4-nitrophenol oxidation, inhibitor	B6C3F1 mouse, liver microsomes	30 min, pH 7.4		Ki	830 µM
COCC1OC2CC(CC(N)C(=O)O)(C(=O)O)OC2C(O)C1O (stereo not shown)	Gria2	[3H]AMPA displacement	HEK-293T/17 membranes			Ki	> 10 µM
O=C(Nc1ccc2c(c1)C=CCP(=O)(O)O2)Nc1ccccc1Br	CA9					Ki	0.0469 µM

Excerpt of the above:
Structure (SMILES)	target or system	assay	test system	conditions	how to read	measurement	value
C[C@H]1CN(c2n[nH]c3nc(N[C@H]4CC[C@H](NS(=O)(=O)CCC(F)(F)F)CC4)ncc23)CCO1	Crk-like protein (Homo sapiens, UniProt P46109)	competitor, Kinobeads competition	human cell extract	0.8 µM	reference: vehicle	relative abundance	1.18
O=C(Nc1ccc(F)cc1)Nc1ccc2c(c1)C=CCP(=O)(O)O2	CA9					Ki	0.0044 µM
